Experimental data of several laboratories.
Every numbered part comes from another study and shows a few of its results, in no order.
Chain of UniProt Q15208 (whole entry, looked up): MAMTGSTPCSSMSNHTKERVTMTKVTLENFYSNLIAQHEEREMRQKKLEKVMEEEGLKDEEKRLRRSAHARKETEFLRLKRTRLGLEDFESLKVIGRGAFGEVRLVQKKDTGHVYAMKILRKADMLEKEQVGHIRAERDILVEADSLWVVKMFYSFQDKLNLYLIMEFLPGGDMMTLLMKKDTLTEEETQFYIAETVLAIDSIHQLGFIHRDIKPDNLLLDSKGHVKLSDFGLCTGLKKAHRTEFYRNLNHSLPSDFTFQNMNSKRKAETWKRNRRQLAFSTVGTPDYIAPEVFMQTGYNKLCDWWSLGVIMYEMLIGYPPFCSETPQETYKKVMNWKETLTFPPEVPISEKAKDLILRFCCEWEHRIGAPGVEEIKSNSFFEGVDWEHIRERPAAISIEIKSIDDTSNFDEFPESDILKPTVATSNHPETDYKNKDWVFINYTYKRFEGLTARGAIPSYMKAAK
Chain of UniProt P53778 (whole entry, looked up): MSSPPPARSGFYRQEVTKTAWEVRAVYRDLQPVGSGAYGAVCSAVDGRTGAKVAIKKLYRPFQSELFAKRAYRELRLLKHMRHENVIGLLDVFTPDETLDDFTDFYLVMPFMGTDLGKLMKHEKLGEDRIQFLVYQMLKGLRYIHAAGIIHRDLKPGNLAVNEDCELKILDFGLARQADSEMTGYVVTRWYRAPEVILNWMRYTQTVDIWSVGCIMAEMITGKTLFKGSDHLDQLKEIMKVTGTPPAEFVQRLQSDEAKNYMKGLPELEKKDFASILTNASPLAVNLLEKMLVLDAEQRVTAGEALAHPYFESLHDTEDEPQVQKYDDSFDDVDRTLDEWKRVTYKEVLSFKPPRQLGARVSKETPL
Chain of UniProt Q02779 (whole entry, looked up): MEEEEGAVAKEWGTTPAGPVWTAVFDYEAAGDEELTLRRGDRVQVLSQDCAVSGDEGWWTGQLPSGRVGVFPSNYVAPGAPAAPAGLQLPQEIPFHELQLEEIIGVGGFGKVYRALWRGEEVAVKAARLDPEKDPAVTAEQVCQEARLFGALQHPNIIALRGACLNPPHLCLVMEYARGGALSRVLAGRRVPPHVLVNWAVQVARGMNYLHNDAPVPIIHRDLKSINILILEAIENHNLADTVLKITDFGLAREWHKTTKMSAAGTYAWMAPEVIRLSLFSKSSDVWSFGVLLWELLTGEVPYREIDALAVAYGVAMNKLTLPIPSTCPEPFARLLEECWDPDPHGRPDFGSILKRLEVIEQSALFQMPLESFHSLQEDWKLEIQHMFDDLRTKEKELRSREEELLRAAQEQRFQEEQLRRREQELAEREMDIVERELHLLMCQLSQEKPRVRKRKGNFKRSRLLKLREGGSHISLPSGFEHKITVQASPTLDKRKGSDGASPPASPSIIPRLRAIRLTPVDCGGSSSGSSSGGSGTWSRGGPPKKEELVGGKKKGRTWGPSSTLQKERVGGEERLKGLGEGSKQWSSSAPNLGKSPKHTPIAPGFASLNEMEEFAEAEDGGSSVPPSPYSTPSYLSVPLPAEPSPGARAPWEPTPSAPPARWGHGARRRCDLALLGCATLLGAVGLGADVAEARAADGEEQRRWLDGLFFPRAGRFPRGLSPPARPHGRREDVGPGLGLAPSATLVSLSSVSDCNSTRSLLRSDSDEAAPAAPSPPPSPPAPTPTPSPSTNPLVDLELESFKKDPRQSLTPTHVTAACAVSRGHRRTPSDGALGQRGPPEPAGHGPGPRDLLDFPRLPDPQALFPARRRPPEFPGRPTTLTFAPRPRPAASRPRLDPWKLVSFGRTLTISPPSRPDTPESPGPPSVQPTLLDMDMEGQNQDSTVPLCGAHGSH
Chain of UniProt Q13976 (whole entry, looked up): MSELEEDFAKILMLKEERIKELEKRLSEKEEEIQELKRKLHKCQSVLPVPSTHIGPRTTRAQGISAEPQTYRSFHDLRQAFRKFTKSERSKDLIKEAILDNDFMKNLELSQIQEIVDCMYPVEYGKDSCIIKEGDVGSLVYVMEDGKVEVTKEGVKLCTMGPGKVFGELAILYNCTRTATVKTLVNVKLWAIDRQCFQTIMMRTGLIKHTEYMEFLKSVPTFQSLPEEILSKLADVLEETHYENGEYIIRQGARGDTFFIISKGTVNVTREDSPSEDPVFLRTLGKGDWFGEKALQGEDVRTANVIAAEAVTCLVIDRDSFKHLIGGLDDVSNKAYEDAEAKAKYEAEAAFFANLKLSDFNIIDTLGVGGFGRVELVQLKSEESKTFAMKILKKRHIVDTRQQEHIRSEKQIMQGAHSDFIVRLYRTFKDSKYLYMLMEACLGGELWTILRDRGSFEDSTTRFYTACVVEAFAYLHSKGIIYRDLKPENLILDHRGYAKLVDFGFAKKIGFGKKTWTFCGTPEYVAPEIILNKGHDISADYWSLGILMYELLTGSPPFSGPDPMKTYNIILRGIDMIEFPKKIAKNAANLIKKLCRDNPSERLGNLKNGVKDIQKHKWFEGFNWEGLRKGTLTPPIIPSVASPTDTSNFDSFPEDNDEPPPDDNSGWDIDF

Study 1 — observed: enzyme activity; tested at: concentration not given; setting: without ssDNA
Target: DNA polymerase theta, helicase domain (POLQ, Homo sapiens, UniProt O75417)
Chain of UniProt O75417 (whole entry, looked up): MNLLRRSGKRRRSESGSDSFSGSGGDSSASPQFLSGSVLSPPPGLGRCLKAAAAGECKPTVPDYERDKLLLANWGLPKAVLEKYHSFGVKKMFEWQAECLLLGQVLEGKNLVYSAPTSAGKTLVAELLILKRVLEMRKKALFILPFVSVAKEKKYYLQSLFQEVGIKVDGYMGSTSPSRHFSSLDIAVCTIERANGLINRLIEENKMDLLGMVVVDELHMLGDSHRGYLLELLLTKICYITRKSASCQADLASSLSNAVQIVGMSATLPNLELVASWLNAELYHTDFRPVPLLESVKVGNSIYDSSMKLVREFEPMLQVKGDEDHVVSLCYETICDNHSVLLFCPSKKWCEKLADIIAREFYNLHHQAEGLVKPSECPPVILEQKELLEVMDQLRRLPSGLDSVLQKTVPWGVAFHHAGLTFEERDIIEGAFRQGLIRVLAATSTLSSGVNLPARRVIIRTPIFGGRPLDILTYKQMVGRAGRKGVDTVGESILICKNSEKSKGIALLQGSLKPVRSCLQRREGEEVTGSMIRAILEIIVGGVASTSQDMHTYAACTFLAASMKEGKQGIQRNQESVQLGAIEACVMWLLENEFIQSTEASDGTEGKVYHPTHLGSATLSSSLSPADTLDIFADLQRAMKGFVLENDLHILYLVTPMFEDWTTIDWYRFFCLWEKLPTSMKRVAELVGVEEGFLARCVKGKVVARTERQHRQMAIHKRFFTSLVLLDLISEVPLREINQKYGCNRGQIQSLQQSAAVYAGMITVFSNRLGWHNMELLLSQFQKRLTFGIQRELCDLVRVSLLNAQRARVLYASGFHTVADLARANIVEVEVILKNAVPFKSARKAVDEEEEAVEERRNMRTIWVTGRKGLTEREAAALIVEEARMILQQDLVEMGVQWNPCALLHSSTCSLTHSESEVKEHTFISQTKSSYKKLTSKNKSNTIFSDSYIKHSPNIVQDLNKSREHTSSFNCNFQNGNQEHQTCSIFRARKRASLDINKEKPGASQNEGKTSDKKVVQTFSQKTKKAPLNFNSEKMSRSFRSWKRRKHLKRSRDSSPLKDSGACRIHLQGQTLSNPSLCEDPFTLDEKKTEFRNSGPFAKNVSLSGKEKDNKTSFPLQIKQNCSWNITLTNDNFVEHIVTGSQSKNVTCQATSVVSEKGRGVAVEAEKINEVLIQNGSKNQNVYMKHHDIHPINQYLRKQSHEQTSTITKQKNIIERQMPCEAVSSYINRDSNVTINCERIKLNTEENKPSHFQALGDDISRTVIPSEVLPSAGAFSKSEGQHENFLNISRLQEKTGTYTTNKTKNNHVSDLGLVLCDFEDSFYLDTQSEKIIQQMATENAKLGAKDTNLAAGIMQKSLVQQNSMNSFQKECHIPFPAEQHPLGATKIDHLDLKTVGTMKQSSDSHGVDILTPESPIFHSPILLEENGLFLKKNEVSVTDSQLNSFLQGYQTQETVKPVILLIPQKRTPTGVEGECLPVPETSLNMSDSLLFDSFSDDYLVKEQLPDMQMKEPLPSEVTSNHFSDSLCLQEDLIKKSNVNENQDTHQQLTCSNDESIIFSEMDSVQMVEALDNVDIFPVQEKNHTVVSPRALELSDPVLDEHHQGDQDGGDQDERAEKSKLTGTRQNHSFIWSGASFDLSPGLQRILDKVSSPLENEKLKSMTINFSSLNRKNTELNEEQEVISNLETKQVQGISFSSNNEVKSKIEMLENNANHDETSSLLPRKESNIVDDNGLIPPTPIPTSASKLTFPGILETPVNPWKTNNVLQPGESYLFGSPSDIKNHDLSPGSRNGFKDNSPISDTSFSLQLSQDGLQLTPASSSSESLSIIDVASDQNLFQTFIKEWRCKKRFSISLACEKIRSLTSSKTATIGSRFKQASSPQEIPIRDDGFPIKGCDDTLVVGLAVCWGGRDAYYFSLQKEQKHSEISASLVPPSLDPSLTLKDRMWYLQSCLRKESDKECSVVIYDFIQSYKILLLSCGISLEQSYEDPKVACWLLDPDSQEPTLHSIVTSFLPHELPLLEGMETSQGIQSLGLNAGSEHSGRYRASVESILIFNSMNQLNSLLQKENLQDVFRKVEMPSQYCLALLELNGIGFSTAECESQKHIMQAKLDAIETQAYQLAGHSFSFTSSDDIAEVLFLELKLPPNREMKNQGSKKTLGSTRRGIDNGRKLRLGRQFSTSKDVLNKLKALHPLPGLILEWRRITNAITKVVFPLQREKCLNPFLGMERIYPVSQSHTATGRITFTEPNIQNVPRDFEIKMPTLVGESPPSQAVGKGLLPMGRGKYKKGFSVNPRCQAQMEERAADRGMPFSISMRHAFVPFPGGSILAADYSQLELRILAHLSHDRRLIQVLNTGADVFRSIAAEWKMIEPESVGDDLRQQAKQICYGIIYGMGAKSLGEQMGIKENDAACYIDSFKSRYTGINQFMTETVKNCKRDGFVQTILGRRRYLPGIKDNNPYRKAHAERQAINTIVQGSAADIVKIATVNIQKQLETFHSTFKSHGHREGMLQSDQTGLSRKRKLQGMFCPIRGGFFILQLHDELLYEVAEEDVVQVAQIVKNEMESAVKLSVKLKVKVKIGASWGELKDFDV
| SMILES | remaining activity [%] |
| --- | --- |
| CCN(CC)C(=O)c1ccc2c(c1)N(Cc1ccc(C(F)(F)F)cc1)C(=O)c1ccccc1S2 | 30.2 |
| CN(N=O)c1ccc(O)c(O)c1 | 94.9 |
| COc1cc(C(c2c(O)c3ccccc3oc2=O)c2c(C)n(C)n(-c3ccccc3)c2=O)ccc1OCC(=O)O (stereo not shown) | 77.1 |
| CSc1ccc(C(c2c(O)c3ccccc3oc2=O)c2c(C)n(C)n(-c3ccccc3)c2=O)cc1 (stereo not shown) | 106 |

Study 2 — observed: enzyme activity; mode: inhibitor; tested at: 0.5 µM; relative to: control
SMILES: O=C1NC(=O)c2c1c1c3ccccc3n3c1c1c2c2ccccc2n1[C@H]1CC[C@@H]3O1
| target | remaining activity [%] |
| --- | --- |
| CHEK1 (Homo sapiens, UniProt O14757) | 3.63 |
| NEK4 (Homo sapiens, UniProt P51957) | 22 |
| STK38 (Homo sapiens, UniProt Q15208) | 46.2 |
| PRKCD (Homo sapiens, UniProt Q05655) | 19 |
| MAPK12 (Homo sapiens, UniProt P53778) | 113 |
| LYN (Homo sapiens, UniProt P07948) | 35.4 |
| PRKG1 (Homo sapiens, UniProt Q13976) | 35.7 |
| PLK2 (Homo sapiens, UniProt Q9NYY3) | 62.4 |
| EPHA5 (Homo sapiens, UniProt P54756) | 78.7 |
| MAP3K10 (Homo sapiens, UniProt Q02779) | 2.66 |
| WNK2 (Homo sapiens, UniProt Q9Y3S1) | 93.6 |
| MAP2K6 (Homo sapiens, UniProt P52564) | 19.3 |

Study 3 — medium: plasma; route: oral
SMILES: CNC(=O)c1ccc(-c2cnn3ccc(C(=O)N(C)c4ccc(Cl)c(C(=O)O)c4)cc23)cc1
| host | dose | time | setting | AUC |
| --- | --- | --- | --- | --- |
| Wistar rat, both sexes | 1000 mg/kg/day | 2 weeks | GLP toxicology study | 1430 ng·h/mL |
| Wistar rat, both sexes | 250 mg/kg/day | 2 weeks | GLP toxicology study | 651 ng·h/mL |
| beagle dog | 250 mg/kg/day | – | multiple doses | 126 ng·h/mL |
| beagle dog | 15 mg/kg/day | – | multiple doses | 35.5 ng·h/mL |
| Wistar rat, both sexes | 50 mg/kg/day | 2 weeks | GLP toxicology study | 179 ng·h/mL |
| bovine | 20 mg/kg/day | – | – | 103 ng·h/mL |
| beagle dog | 50 mg/kg/day | – | multiple doses | 58.2 ng·h/mL |
| beagle dog | 1000 mg/kg/day | – | multiple doses | 301 ng·h/mL |

Other studies, line by line
| SMILES | target | observed | technique | tested at | added | quantity | value |
| --- | --- | --- | --- | --- | --- | --- | --- |
| COc1ccc([C@@]23Oc4cc(OC)cc(OC)c4[C@]2(O)[C@H](O)[C@H](C(=O)N(C)OC)[C@H]3c2ccccc2)cc1 | Eukaryotic initiation factor 4A-I (EIF4A1, Homo sapiens, UniProt P60842) | RNA clamping | fluorescence polarization | concentration not given | FAM-labelled poly r(AG)8 RNA | fluorescence polarization change | 16.1 mP |

A few entries again (study 2):
| target | remaining activity [%] |
| --- | --- |
| EPHA5 (Homo sapiens, UniProt P54756) | 78.7 |
| MAP3K10 (Homo sapiens, UniProt Q02779) | 2.66 |
| WNK2 (Homo sapiens, UniProt Q9Y3S1) | 93.6 |
